Assay results of several laboratories.
A part holds a random share of what one study measured.

Series 1
Target: Fragile X messenger ribonucleoprotein 1, C-terminal low-complexity region (Fmr1, Mus musculus, UniProt P35922)
Method: RNA Bind-n-Seq
Molecule type: RNA
Medium: in vitro
Concentration: 200 nM
Notes: whole 134-nt RNA, ends assumed
Together with: 150 mM LiCl
Relative to: input library
Reading: higher = stronger binding
Quantity: log2 enrichment
Each molecule: 7-deaza-guanosine replaces G
GGGAGUUCUACAGUCCGACGAUCGUCCUGUGCUACACAUCGUAUGUACCGAAUCGGGUUUUUGGGAAAAAGGGAAAAAGGGAAAGUAUUAUGUUACGCCGUUCGGAUCUGCACUGGAAUUCUCGGGUGUCAAGG: -1.18
GGGAGUUCUACAGUCCGACGAUCUCAAGUCCUGUGCUACACAUCGUAUGUACCGAAUCGGGGCCGGGGCCGGCCGGGGAAAGUAUUAUGUUACGCCGUUCGGAUCUGCACUUCUGGAAUUCUCGGGUGUCAAGG: -0.0383
GGGAGUUCUACAGUCCGACGAUCAAGUCCUGUGCUACACAUCGUAUGUACCGAAUCGGGUUUGGGAAAGGGAAAAAGGGAAAGUAUUAUGUUACGCCGUUCGGAUCUGCACUUUGGAAUUCUCGGGUGUCAAGG: -0.353
GGGAGUUCUACAGUCCGACGAUCAAGUCCUGUGCUACACAUCGUAUGUACCGAAUCGGUUUUUGGUUUGGUUUUUUUGGAAAGUAUUAUGUUACGCCGUUCGGAUCUGCACUUUGGAAUUCUCGGGUGUCAAGG: -2.56

Series 2
Target: RING finger protein unkempt homolog, zinc fingers 1-6, GST-SBP tag (UNK, Homo sapiens, UniProt Q9C0B0, residues 30-357)
Sequence of UniProt Q9C0B0 (30-357, looked up): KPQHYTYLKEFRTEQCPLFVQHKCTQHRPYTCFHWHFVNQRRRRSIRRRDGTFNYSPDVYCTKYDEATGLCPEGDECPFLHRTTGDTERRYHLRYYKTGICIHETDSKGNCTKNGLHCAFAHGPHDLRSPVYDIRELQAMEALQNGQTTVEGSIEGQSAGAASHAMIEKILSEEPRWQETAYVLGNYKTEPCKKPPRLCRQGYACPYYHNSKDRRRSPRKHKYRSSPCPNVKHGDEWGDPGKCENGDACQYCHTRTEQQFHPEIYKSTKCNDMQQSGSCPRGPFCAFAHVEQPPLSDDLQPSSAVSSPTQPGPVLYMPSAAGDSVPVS
Method: RNA Bind-n-Seq
Molecule type: RNA
Medium: in vitro
Concentration: not given
Notes: RNA with constant flanks, human and mouse sites, ends assumed
Relative to: input RNA pool
Reading: higher = stronger binding
Quantity: bound/input enrichment
GGGAGUUCUACAGUCCGACGAUCGGCUUUAUUCUGUGCCAUGGGAUGCUAAAUACGGAGGCUACCGCACUGAACCUUUGGAAGCUAGCUCUUCAGAGUAGCUCUUGCCUCUCUCUCUUUCGGGAUGAAGUUUUCCACAUUCACCAACAGAGGAUUGAGCAUCA: 0.142 ratio
GGGAGUUCUACAGUCCGACGAUCAAUUAUUUUUCCUUGCUCAUGGGCUGGAUGGGAAUUAUCCCUCCUCCGGUGCAGUGUCAUCAUAGACUAUCCAUGACAGAUGAUAGCAAGAAGCAAGAUCUUAGUUCAUCAUUGACAGAUCAACAGAGGAUUGAGCAUCA: 0.147 ratio
GGGAGUUCUACAGUCCGACGAUCGAGGCGGAGCAAAGCAACGGGAAGAUAAACGGGAGCACCUUCAAUAAAGAUGAAUCAAAGGAAGAAAAGAAAGAAGAGGAGGAGGAAUUAAAUUUUAAUGAAGACAUUCUGUGUCCUCAUCAACAGAGGAUUGAGCAUCA: 0.415 ratio
GGGAGUUCUACAGUCCGACGAUCUUGUCUAGCAAAUAAAAGAUGUUAAUAUAUUCCUGUUACUGGCAUGUGCACGACUAUGUUAUUAGAAGCCACUUUAUCAUUUUCCUGCUUUAAAUAGAAAUGUCUAUUUAUGAAUUCUGCCAACAGAGGAUUGAGCAUCA: 2.27 ratio

Series 3
Target: Histone acetyltransferase KAT6A, winged helix 2, GST fusion (KAT6A, Homo sapiens, UniProt Q92794, residues 85-181)
Method: protein binding microarray
Molecule type: double-stranded DNA, one strand shown
Medium: in vitro
Concentration: not given
Notes: 8-mer, flanks averaged, mean of 2 arrays, mostly near background
Relative to: not given
Reading: higher = stronger binding
Quantity: E-score
Target sequence (chain): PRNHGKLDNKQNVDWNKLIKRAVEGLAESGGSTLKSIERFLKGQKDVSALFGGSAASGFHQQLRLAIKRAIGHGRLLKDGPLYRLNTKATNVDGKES
GAGCAGGC: 0.0528
ATTGAGCC: 0.0854
GGATACCC: 0.0447
GACCAACC: 0.0771

Other studies, line by line
PhoQ, residues 284 288 289 292 302 303 SIHMAM — fold induction (PhoP, residues 12 14 15 18 19 TPWLV (Escherichia coli, UniProt P23836); Sort-seq, measured: YFP reporter; E. coli; PhoQ-PhoP variant library, together with: 10 µM Mg2+; relative to: high Mg2+ state, higher = stronger signaling): 4.79

Excerpt of the above (series 1):
GGGAGUUCUACAGUCCGACGAUCAAGUCCUGUGCUACACAUCGUAUGUACCGAAUCGGGUUUGGGAAAGGGAAAAAGGGAAAGUAUUAUGUUACGCCGUUCGGAUCUGCACUUUGGAAUUCUCGGGUGUCAAGG: -0.353
